{"data": "Assay results pooled from the literature", "note": "Each numbered part is a random draw from the data of one study; scales do not carry over between parts. Substitutions count along the parent as printed."}
{"data": "Set 1", "target": "CCNB1, cyclin fold, Cln2 fusion (human)", "technique": "yeast growth competition, sequencing", "matrix": "yeast", "setting": "weak parent motif", "relative to": "not given", "direction": "higher = stronger binding", "parent": "WEE1 docking peptide (human); HKTFRKLRLFDTP"}
{"Change": "L9K", "normalised enrichment score": 0.854}
{"Change": "T3Y", "normalised enrichment score": -2.22}
{"Change": "H1S", "normalised enrichment score": 1.85}
{"Change": "T12F", "normalised enrichment score": 0.818}
{"Change": "F10G", "normalised enrichment score": 0.108}
{"Change": "T3W", "normalised enrichment score": -0.276}
{"Change": "T3K", "normalised enrichment score": -3.91}
{"Change": "K2L", "normalised enrichment score": 0.375}
{"Change": "K6S", "normalised enrichment score": 0.32}
{"Change": "L7K", "normalised enrichment score": 0.721}
{"Change": "D11M", "normalised enrichment score": 1.25}
{"Change": "T12N", "normalised enrichment score": 1.16}
{"Change": "F10W", "normalised enrichment score": 0.746}
{"Change": "K2R", "normalised enrichment score": 0.922}
{"Change": "T12E", "normalised enrichment score": 0.572}
{"data": "Set 2", "target": "Fragile X messenger ribonucleoprotein 1, C-terminal low-complexity region (Fmr1, Mus musculus, UniProt P35922)", "technique": "RNA Bind-n-Seq", "molecule type": "RNA", "matrix": "in vitro", "concentration": "200 nM", "setting": "whole 134-nt RNA, ends assumed", "together with": "150 mM LiCl", "relative to": "input library", "direction": "higher = stronger binding", "all molecules": "7-deaza-guanosine replaces G", "all sequences stand within": "GGGAGUUCUACAGUCCGACGAUC … UGGAAUUCUCGGGUGUCAAGG"}
{"Sequence": "UGGCCCUGGUGGCAUGCGGGGAGGAAGAGGUGGCCUCAUGGACCGUGGUGGUCCCGGUGGAAUGUUCAGAGGUGGCCGUGGUGGAGACAG", "log2 enrichment": -0.83}
{"Sequence": "UAACUUUAGAGGAGGAUCUGAUGGAUAUGGCAGUGGACGUGGAUUUGGGGAUGGCUAUAAUGGGUAUGGAGGAGUACCUGGAGGUGGCAA", "log2 enrichment": -0.745}
{"Sequence": "UCAAGUCCUGUGCUACACAUCGUAUGUACCGAAUCGGUGGUUUUUGGUUUUUGGAAAGUAUUAUGUUACGCCGUUCGGAUCUGCACUUCC", "log2 enrichment": -0.821}
{"Sequence": "ACCAUGCAGGUGGGCAUCUUUGGGAAGUGGGGCAAGGGGGGGAUAGGGAGGGGGGUAACACUUUGGGAACAGGUGGUCCAAAGUCGUUUC", "log2 enrichment": 1.23}
{"Sequence": "CCUCAAGUCCUGUGCUACACAUCGUAUGUACCGAAUCGGGGAGGAGGGAGGGGAAAGUAUUAUGUUACGCCGUUCGGAUCUGCACUUCCA", "log2 enrichment": -1.12}
{"Sequence": "UUCUGCACCUCUGCUACCUAAAGAAGACCCAAUCUUCACAUAUUUAUCUAAACGGUUAGGAAGGAGUAUAGAUGACAUAGGUCACCUCAU", "log2 enrichment": 0.514}
{"Sequence": "UGUGCUACACAUCGUAUGUACCGAAUCGGAAAAAAAGGGGAAAAAAAGGGGAAAAAAAGGGGAAAGUAUUAUGUUACGCCGUUCGGAUCU", "log2 enrichment": 0.476}
{"Sequence": "CCUGUGCUACACAUCGUAUGUACCGAAUCGGGAAAAAAGGGGAAAAAAGGGGAAAAAAGGGAAAGUAUUAUGUUACGCCGUUCGGAUCUG", "log2 enrichment": 0.397}
{"data": "Set 3", "target": "Histone acetyltransferase KAT6A, winged helix 1, GST fusion (KAT6A, Homo sapiens, UniProt Q92794, residues 1-85)", "technique": "protein binding microarray", "molecule type": "double-stranded DNA, one strand shown", "matrix": "in vitro", "concentration": "not given", "setting": "8-mer, flanks averaged, mean of 2 arrays, mostly near background", "relative to": "not given", "direction": "higher = stronger binding", "Residues (chain)": "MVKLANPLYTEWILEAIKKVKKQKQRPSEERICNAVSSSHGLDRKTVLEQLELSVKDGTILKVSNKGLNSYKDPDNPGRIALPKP"}
{"Sequence": "CAGTTTCA", "E-score": -0.0415}
{"Sequence": "GCCCCTCA", "E-score": 0.0744}
{"Sequence": "AGGCGACG", "E-score": 0.235}
{"Sequence": "ACTGCGGA", "E-score": 0.232}
{"Sequence": "ATCCTGAC", "E-score": -0.0611}
{"Sequence": "CTTATGAC", "E-score": -0.215}
{"Sequence": "TACCCGTA", "E-score": 0.34}
{"Sequence": "ATGTCGTG", "E-score": -0.143}
{"Sequence": "CGATCTCC", "E-score": -0.043}
{"Sequence": "CCATGTGC", "E-score": 0.0502}
{"Sequence": "ACTAAGGC", "E-score": 0.052}
{"Sequence": "GAAATTCA", "E-score": -0.109}
{"Sequence": "GTCCCACA", "E-score": -0.0232}
{"Sequence": "GGTTTATA", "E-score": -0.00254}
{"Sequence": "AGTTTTAA", "E-score": -0.0697}
{"Sequence": "AACACTGT", "E-score": -0.0457}
{"data": "Set 4", "Substance": "PhoQ, residues 284 288 289 292 302 303 SSTLSG", "technique": "Sort-seq", "item": "YFP reporter", "matrix": "E. coli", "setting": "PhoQ-PhoP variant library", "together with": "10 µM Mg2+", "relative to": "high Mg2+ state", "direction": "higher = stronger signaling"}
{"target": "PhoP, residues 12 14 15 18 19 SFCSL (Escherichia coli, UniProt P23836)", "fold induction": 11.1}
{"target": "PhoP, residues 12 14 15 18 19 AYFRS (Escherichia coli, UniProt P23836)", "fold induction": 4.47}
{"target": "PhoP, residues 12 14 15 18 19 HHYTI (Escherichia coli, UniProt P23836)", "fold induction": 8.68}
{"note": "Some of these lines once more (set 3):"}
{"Sequence": "CCATGTGC", "E-score": 0.0502}
{"Sequence": "GGTTTATA", "E-score": -0.00254}
{"Sequence": "ACTAAGGC", "E-score": 0.052}
{"Sequence": "AACACTGT", "E-score": -0.0457}
